Measured values gathered from unrelated publications.
Lines come from different studies, so protocols differ.
Cell line: HEK293

`COc1ccc2c(c1)C1CC(C)(N2)c2c(C)nc3ccc(OC)cc3c21` (centres unmarked) has a selectivity index of greater than 100 fold (baseline: HEK293 CC50 over parasite IC50).
With `CCCCCCCC(=O)SCCC=CC1CC(=O)NCc2nc(cs2)C2=NC(C)(CS2)C(=O)NC(C(C)C)C(=O)O1` (centres unmarked) the GI50 was greater than 10 µM (cell growth or viability).
With `Cc1nn(-c2ccccc2)c(O)c1C(c1ccccc1O)c1c(C)nn(-c2ccccc2)c1O` the IC50 was greater than 40 µM (cell growth or viability, MTT; 48 h).
`C#CCCCC[C@H](C)C[C@@H](C)C(=O)N(C)[C@H](C(=O)N(C)[C@@H](Cc1ccccc1)C(=O)N1CCC[C@H]1C(=O)N1CCC[C@H]1C(C)=O)C(C)C` has an IC50 of 5760 µM (cell growth or viability, SRB).
With `COc1ccc2cc1Oc1cc3c(cc1OC)CCN(C)C3Cc1ccc(cc1)Oc1c(O)c(OC)cc3c1C(C2)N(C)CC3` (centres unmarked) the selectivity index was 90.8 (baseline: CC50 HEK293 over INDO IC50).
With `CC(C)C[C@@H](NC(=O)CCNc1ccc([N+](=O)[O-])c2nonc12)C(=O)N[C@H](CC(C)C)C(=O)N[C@H](CC(C)C)C(=O)N[C@H](CC(C)C)C(=O)N[C@H](Cc1ccc(OP(=O)(O)O)cc1)C(=O)O` the viability was greater than 60% (MTT; 200 µM, 24 h).
With `COc1cc2c3cc1Oc1cc(ccc1O)CC1c4c(cc(OC)c(O)c4Oc4ccc(cc4)CC3N(C)CC2)CCN1C` (centres unmarked) the selectivity index was greater than 100 fold (baseline: HEK293 CC50 over parasite IC50).
The IC50 of `Cc1nn(-c2ccccc2)c(O)c1C(c1ccc(N(C)C)cc1)c1c(C)nn(-c2ccccc2)c1O` is reported as greater than 40 µM (cell growth or viability, MTT; 48 h).
For `CC(C)C[C@H](NC(=O)[C@@H](CCCCN)NC(=O)[C@H](Cc1c[nH]cn1)NC(=O)[C@H](CO)NC(=O)[C@H](Cc1c[nH]c2ccccc12)NC(=O)[C@H](Cc1c[nH]cn1)NC(=O)[C@@H]1CCC(=O)N1)C(=O)N[C@@H](CCCNC(=N)N)C(=O)N1CCC[C@H]1C(=O)NCC(N)=O`, the IC50 was 0.0248 µM (cell growth or viability, SRB).
`CC(=O)[C@@H]1CCCN1C(=O)[C@@H]1CCCN1C(=O)[C@H](Cc1ccccc1)NC(=O)[C@@H](NC(=O)[C@@H](NC(=O)[C@@H](NC(=O)[C@@H]1CCCN1C(=O)[C@H](C)NC(=O)OC(C)(C)C)C(C)C)C(C)C)C(C)C` has an IC50 of 362 µM (cell growth or viability, SRB).
The IC50 of `COc1ccc(C(c2c(C)nn(-c3ccccc3)c2O)c2c(C)nn(-c3ccccc3)c2O)cc1` is reported as greater than 40 µM (cell growth or viability, MTT; 48 h).
Under mRNA level, `CC[C@H](C)[C@H](NC(=O)CNC(=O)[C@H](CCCCN)NC(=O)[C@H](CO)NC(=O)[C@H](CCCCN)NC(=O)CNC(=O)[C@H](CC(=O)O)NC(=O)[C@H](CCCCN)NC(=O)[C@H](CO)NC(=O)[C@@H](NC(=O)[C@H](CC(C)C)NC(=O)[C@H](CCCNC(=N)N)NC(=O)[C@@H](NC(=O)[C@H](CCC(=O)O)NC(=O)[C@H](C)NC(=O)[C@H](CCCNC(=N)N)NC(=O)[C@H](CCCNC(=N)N)NC(=O)[C@H](CCCNC(=N)N)NC(=O)[C@H](CCC(N)=O)NC(=O)[C@H](CCCNC(=N)N)NC(=O)[C@H](CCCNC(=N)N)NC(=O)[C@H](CCCCN)NC(=O)[C@H](CCCCN)NC(=O)[C@H](CCCNC(=N)N)NC(=O)CNC(=O)[C@@H](N)Cc1ccc(O)cc1)[C@@H](C)CC)C(C)C)C(=O)N[C@@H](C)C(=O)N[C@@H](Cc1ccc(O)cc1)C(=O)N[C@H](C(=O)N[C@@H](CCC(=O)O)C(=O)N[C@@H](Cc1ccccc1)C(=O)N[C@@H](CCCCN)C(=O)O)[C@@H](C)CC` is recorded as “no effect” (RT-PCR, item: HBB; concentration not given).
`O=C(O)c1ccc(-n2cc(/C=N/Nc3cccc(Cl)c3F)c(-c3ccc4ccccc4c3)n2)cc1` has a selectivity ratio of no more than 48.7 (up to; baseline: HEK293 IC50 over MIC).
The IC50 of `Cc1nn(-c2ccccc2)c(O)c1C(c1ccc(F)cc1)c1c(C)nn(-c2ccccc2)c1O` is reported as greater than 40 µM (cell growth or viability, MTT; 48 h).

For quick reference, copied from above:
`C#CCCCC[C@H](C)C[C@@H](C)C(=O)N(C)[C@H](C(=O)N(C)[C@@H](Cc1ccccc1)C(=O)N1CCC[C@H]1C(=O)N1CCC[C@H]1C(C)=O)C(C)C` has an IC50 of 5760 µM (cell growth or viability, SRB).
